Published values from different studies.
Each line is one published result; not all experiments were run side by side. ± gives the spread as reported.

| SMILES | system | setting | scale | quantity | result |
| --- | --- | --- | --- | --- | --- |
| CC(C)(C)OC[C@@H]1C(=O)NCCN1C(=O)C[C@H](N)Cc1cc(F)c(F)cc1F | human, plasma | oral, 5 mg once daily, together with: glimepiride 4 mg | – | AUC(tau) steady state | 110 ± 21.7 ng·h/mL |
| O=C(NC[C@H]1CN(c2ccc(N3CCOCC3=O)cc2)C(=O)O1)c1ccc(Cl)s1 | human | 20 mg once daily, day 3 | – | AUC(tau) | 3050 ± 556 ng·h/mL |
| C[C@@H](c1nc(-c2ccc(C#N)cc2)cs1)[C@](O)(Cn1cncn1)c1cc(F)ccc1F | healthy humans, plasma | oral, 200 mg once daily, together with: mycophenolate mofetil 1 g single dose | – | AUC(tau) | 100000 ng·h/mL |
| Cc1ccc(C(=O)N2CCOC[C@H]2Cc2cccc(-n3nccn3)c2)c(-n2nccn2)c1 | healthy human, plasma | oral, 100 mg initial dose, day 8 | – | AUC(tau) | 4690 ng·h/mL |
| CCn1c(C(=O)c2cc(C)cc(C#N)c2)c(C(C)C)c(=O)[nH]c1=O | healthy humans, plasma | oral, 75 to 600 mg once daily, 7 days, range of dose-group means | – | AUC(tau) at steady state | 3700 to 10200 ng·h/mL |
| NC(=O)N1CCC(CC(=O)N2CCC([C@H]3c4ncc(Br)cc4CCc4cc(Cl)cc(Br)c43)CC2)CC1 | human, plasma | oral, 100 mg twice daily, cycle 2 day 15, together with: gemcitabine 1000 mg/m2 | – | AUC(tau) | 5940 ng·h/mL |
| CC(C)(C)OC[C@@H]1C(=O)NCCN1C(=O)C[C@H](N)Cc1cc(F)c(F)cc1F | human | 20 mg once daily, day 10 | – | AUC(tau) at steady state | 376 ± 51.1 ng·h/mL |
| COC(=O)c1ccc2c(c1)NC(=O)/C2=C(\Nc1ccc(N(C)C(=O)CN2CCN(C)CC2)cc1)c1ccccc1 | human moderate liver impairment, plasma | oral, 100 mg twice daily, geometric mean | – | AUC(tau) steady state | 354 ng·h/mL |
| Nc1ccn([C@@H]2O[C@H](CO)[C@@H](O)C2(F)F)c(=O)n1 | human cancer patients, plasma | intravenous, 750 mg/m^2, cycle 1 day 15, together with: lonafarnib 150 mg twice daily | – | AUC(tau) | 8000 ng·h/mL |
| CC(C)[C@](O)(c1ccc2cc(OC(F)F)c(OC(F)F)cc2c1)c1c[nH]nn1 | human, male, plasma | oral, 600 mg, cycle 2 day 1, steady state | – | AUC(tau) | 55400 ± 5960 ng·h/mL |
| CCC1=C(C)CN(C(=O)NCCc2ccc(S(=O)(=O)NC(=O)N[C@H]3CC[C@H](C)CC3)cc2)C1=O | human, plasma | oral, 4 mg once daily, together with: evogliptin 5 mg | – | AUC(tau) steady state | 1790 ± 653 ng·h/mL |
| CN(C)C(=O)c1cc2cnc(Nc3ccc(N4CCNCC4)cn3)nc2n1C1CCCC1 | human, plasma | oral, 200 mg once daily, steady state | baseline: 600 mg once daily dose | AUC(tau) ratio | ~10% |

Excerpt of the above:
| SMILES | system | setting | scale | quantity | result |
| --- | --- | --- | --- | --- | --- |
| COC(=O)c1ccc2c(c1)NC(=O)/C2=C(\Nc1ccc(N(C)C(=O)CN2CCN(C)CC2)cc1)c1ccccc1 | human moderate liver impairment, plasma | oral, 100 mg twice daily, geometric mean | – | AUC(tau) steady state | 354 ng·h/mL |
| CC(C)[C@](O)(c1ccc2cc(OC(F)F)c(OC(F)F)cc2c1)c1c[nH]nn1 | human, male, plasma | oral, 600 mg, cycle 2 day 1, steady state | – | AUC(tau) | 55400 ± 5960 ng·h/mL |
